Published values pooled from the literature.
Each numbered part is a random draw from the data of one study; scales do not carry over between parts. Changes are numbered by the printed parent chain.

Sample 1
Target: Ras GTPase-activating protein-binding protein 1, full length (G3BP1, Homo sapiens, UniProt Q13283)
UniProt Q13283, sequence (whole entry, looked up): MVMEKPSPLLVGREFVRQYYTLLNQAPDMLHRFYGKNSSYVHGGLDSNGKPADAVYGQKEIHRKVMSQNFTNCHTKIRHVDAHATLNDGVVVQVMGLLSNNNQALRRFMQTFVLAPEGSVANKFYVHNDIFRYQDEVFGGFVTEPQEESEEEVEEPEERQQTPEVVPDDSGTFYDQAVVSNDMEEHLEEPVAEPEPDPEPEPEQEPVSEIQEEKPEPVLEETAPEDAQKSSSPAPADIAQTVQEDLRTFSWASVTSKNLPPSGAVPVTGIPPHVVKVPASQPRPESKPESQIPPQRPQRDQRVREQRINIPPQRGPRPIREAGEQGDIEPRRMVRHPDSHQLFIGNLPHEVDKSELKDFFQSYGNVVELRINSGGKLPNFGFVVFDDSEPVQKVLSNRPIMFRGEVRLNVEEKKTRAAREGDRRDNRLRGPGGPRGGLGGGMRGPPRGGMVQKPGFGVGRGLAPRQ
Method: RNA Bind-n-Seq
Molecule type: RNA
Sample: in vitro
Tested at: 200 nM
Notes: whole 134-nt RNA, ends assumed
Added: 150 mM LiCl
Baseline: input library
Direction: higher = stronger binding
Library: 7-deaza-guanosine replaces G
All sequences stand within: GGGAGUUCUACAGUCCGACGAUC … UGGAAUUCUCGGGUGUCAAGG
`AAGUCCUGUGCUACACAUCGUAUGUACCGAAUCGGAAAAAAAGGUUUGGAAAAAGGAAAGUAUUAUGUUACGCCGUUCGGAUCUGCACUU` gave a log2 enrichment of -2.09.
For `UCCUGUGCUACACAUCGUAUGUACCGAAUCGGGGAAAAAGGGGAAAAAGGAAAAAGGGGAAAGUAUUAUGUUACGCCGUUCGGAUCUGCA`, the log2 enrichment was -0.33.
`UGCCCAGCUCAUGCUGGACCACCUGAAGAACAGUGCUCCCAGCAAGCGAGAGAUUGCCCAGCUCAAGAACCAGGUAUCCACAGAGAGCAC` gave a log2 enrichment of 0.148.
`UGGGAGGUGGAUUUUGUUUAUUUUUUUAGCUCAUUUCCAGGGGUGGGAAUUUUUUUUUAAUAUGUGUCAUGAAUAAAGUUAUUUUUGAAA` has a log2 enrichment of -0.474.
With `CAAGUCCUGUGCUACACAUCGUAUGUACCGAAUCGGGGCCCGGCCCGGGCCCGGGGAAAGUAUUAUGUUACGCCGUUCGGAUCUGCACUU` the log2 enrichment was -1.45.
`CUGUGCUACACAUCGUAUGUACCGAAUCGGGGUUUUUUUGGGUUUUUUUGGGGUUUUUUUGGAAAGUAUUAUGUUACGCCGUUCGGAUCU` gave a log2 enrichment of 1.63.
`UCCUGUGCUACACAUCGUAUGUACCGAAUCGGGAAAAAGGGGAAAAAGGGAAAAAGGGGAAAGUAUUAUGUUACGCCGUUCGGAUCUGCA` has a log2 enrichment of -0.264.
For `GUCCUGUGCUACACAUCGUAUGUACCGAAUCGGAAAAAAAGGAAAAAAAGGUUUUUGGAAAGUAUUAUGUUACGCCGUUCGGAUCUGCAC`, the log2 enrichment was -1.83.
For `AAGUCCUGUGCUACACAUCGUAUGUACCGAAUCGGGGUUUUGGUUUUGGGUUUUGGAAAGUAUUAUGUUACGCCGUUCGGAUCUGCACUU`, the log2 enrichment was -0.483.
`AGUCCUGUGCUACACAUCGUAUGUACCGAAUCGGGAAAAAGGGUUUUUGGGAAAGGGAAAGUAUUAUGUUACGCCGUUCGGAUCUGCACU` has a log2 enrichment of -1.73.
For `CUCAAGUCCUGUGCUACACAUCGUAUGUACCGAAUCGGGCCGGGCCGGCCGGGGAAAGUAUUAUGUUACGCCGUUCGGAUCUGCACUUCC`, the log2 enrichment was 0.479.

Sample 2
Target: Centromere-binding protein 1, full length, N-terminal tag (CBF1, Saccharomyces cerevisiae, UniProt P17106, residues 1-351)
UniProt P17106, sequence (whole entry, looked up): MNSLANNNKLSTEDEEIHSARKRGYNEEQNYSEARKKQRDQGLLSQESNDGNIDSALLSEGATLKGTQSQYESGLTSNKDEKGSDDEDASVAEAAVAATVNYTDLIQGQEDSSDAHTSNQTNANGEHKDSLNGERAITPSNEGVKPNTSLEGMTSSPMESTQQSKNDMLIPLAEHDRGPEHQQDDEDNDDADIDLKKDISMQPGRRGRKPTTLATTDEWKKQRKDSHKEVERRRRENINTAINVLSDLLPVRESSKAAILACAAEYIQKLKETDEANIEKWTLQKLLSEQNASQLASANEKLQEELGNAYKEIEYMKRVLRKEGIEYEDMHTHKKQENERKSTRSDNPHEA
Method: protein-binding microarray
Molecule type: double-stranded DNA, one strand shown
Sample: in vitro
Tested at: 0.8 µM
Notes: whole 60-bp probe, no competitor
Direction: higher = stronger binding
All sequences stand within: … GTCTTGATTCGCTTGACGCTGCTG
With `GAAGCATTCTTTGCCTGCGTGGCTTTCGTCCGCTAG` the fluorescence intensity was 507 a.u.
`GAAATGATGCGGGATGGCGTGAACAAACCCATTTAG` has a fluorescence intensity of 556 a.u.
`CTAAAAAAAGCCAATCACGTGATCAGGAAGATTTTC` gave a fluorescence intensity of 48700 a.u.
For `CTAGAACAAGGTTAGACGGTGACGTTTAGGCGCTTC`, the fluorescence intensity was 499 a.u.
For `CTACATTATGCACGTGACATTACAAATTGTGGTTTC`, the fluorescence intensity was 20000 a.u.
`GAATTATTCACTGCAAACATGTGAAAAATTCCATAG` gave a fluorescence intensity of 632 a.u.
The fluorescence intensity of `TGTACGAAGCTATATTACGTGGGTATAGTAGTTAGG` is reported as 506 a.u.
`GAATGAATAATCGGTCACCTCGTGTGTCGTGATTAG` gave a fluorescence intensity of 708 a.u.
For `GAAAAATACAAAGACAACGTGGGCTGATTACAGTAG`, the fluorescence intensity was 621 a.u.
`CTATACTACTGGTCAATCGTGATATTTATGAACTTC` has a fluorescence intensity of 571 a.u.
`GAATAGTTAATTAGTGATCATATGAAGTAATCATAG` gave a fluorescence intensity of 821 a.u.
The fluorescence intensity of `TGTACGAAGCTATTAGACGTGGTTATAGTAGTTAGG` is reported as 544 a.u.
With `CTACCAGAGCTTCATGAGACCAAGGAAGGAACGTTC` the fluorescence intensity was 503 a.u.
With `CTATCTAATCTCGGTGACATCATTCCAAATGATTTC` the fluorescence intensity was 521 a.u.
The fluorescence intensity of `CTAAGTTAATTTTGTCACCTTAGACTACCAATTTTC` is reported as 514 a.u.
With `GAACTTCTTTGTTGTCACGCTTTTGTTATTTCCTAG` the fluorescence intensity was 1520 a.u.
The fluorescence intensity of `CCTAACTACTATATACATGCGTGATAGCTTCGTACA` is reported as 601 a.u.

Sample 3
Target: CCNA1, cyclin fold, Cln2 fusion (human)
Method: yeast growth competition, sequencing
Sample: yeast
Notes: weak parent motif
Baseline: not given
Direction: higher = stronger binding
Starting sequence: INSM1 docking peptide (human); PKAIRKLHFEDEV; partner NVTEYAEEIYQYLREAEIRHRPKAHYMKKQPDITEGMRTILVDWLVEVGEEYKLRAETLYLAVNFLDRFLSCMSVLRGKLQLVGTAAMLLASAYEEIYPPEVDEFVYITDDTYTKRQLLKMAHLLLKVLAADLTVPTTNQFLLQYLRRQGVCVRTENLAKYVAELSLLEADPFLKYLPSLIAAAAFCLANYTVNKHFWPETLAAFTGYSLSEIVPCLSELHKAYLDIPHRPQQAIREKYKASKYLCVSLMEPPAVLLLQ
For `PKAIRCLHFEDEV [K6C]`, “normalised enrichment score” read 0.166.
`PKAIRKLHFECEV [D11C]` — result for “normalised enrichment score”: 1.4.
For `PKAIRLLHFEDEV [K6L]`, “normalised enrichment score” read 0.197.
For `PKEIRKLHFEDEV [A3E]`, “normalised enrichment score” read -0.114.
For `PKMIRKLHFEDEV [A3M]`, “normalised enrichment score” read 0.185.
`PKDIRKLHFEDEV [A3D]` — result for “normalised enrichment score”: -0.409.
`PFAIRKLHFEDEV [K2F]`: “normalised enrichment score” 0.124.
For `PCAIRKLHFEDEV [K2C]`, “normalised enrichment score” read 0.696.
`PLAIRKLHFEDEV [K2L]`: “normalised enrichment score” 0.148.
`PKAIRKLNFEDEV [H8N]`: “normalised enrichment score” 1.24.
Under “normalised enrichment score”, `PEAIRKLHFEDEV [K2E]` is recorded as 0.282.
`PKAIRKLHFIDEV [E10I]` — result for “normalised enrichment score”: 0.186.
Under “normalised enrichment score”, `PKWIRKLHFEDEV [A3W]` is recorded as -0.691.
`PKAIRKLHFENEV [D11N]`: “normalised enrichment score” 0.804.
For `PKAIRKLHFEDAV [E12A]`, “normalised enrichment score” read 0.615.
`PKAIRKLHFEDNV [E12N]` — result for “normalised enrichment score”: 0.402.
`PKAIIKLHFEDEV [R5I]` — result for “normalised enrichment score”: -0.154.
Under “normalised enrichment score”, `PKAIRKLHFFDEV [E10F]` is recorded as 0.253.
`PKAIRKLHFELEV [D11L]`: “normalised enrichment score” 0.419.
Under “normalised enrichment score”, `PKAERKLHFEDEV [I4E]` is recorded as 0.018.

Other studies, line by line
`PhoQ, residues 284 288 289 292 302 303 SIHLQL` gave a fold induction of 1.49 (PhoP, residues 12 14 15 18 19 LYHSL (Escherichia coli, UniProt P23836); Sort-seq, measured: YFP reporter; E. coli; PhoQ-PhoP variant library, added: 10 µM Mg2+; baseline: high Mg2+ state, higher = stronger signaling).

Excerpt of the above (sample 3):
`PKAIRKLNFEDEV [H8N]`: “normalised enrichment score” 1.24.
Under “normalised enrichment score”, `PEAIRKLHFEDEV [K2E]` is recorded as 0.282.
`PKAIRKLHFIDEV [E10I]` — result for “normalised enrichment score”: 0.186.
Under “normalised enrichment score”, `PKWIRKLHFEDEV [A3W]` is recorded as -0.691.
